Assay results of several laboratories.
Numbers after ± are the reported error.
ABCB1: ATP-dependent translocase ABCB1 (ABCB1, Homo sapiens, UniProt P08183)
ALB: Albumin (ALB, Homo sapiens, UniProt P02768)
Nuclear receptor subfamily 1 group I member 3: Nuclear receptor subfamily 1 group I member 3 (Homo sapiens, UniProt Q14994)
Chain of UniProt Q14994 (whole entry, looked up): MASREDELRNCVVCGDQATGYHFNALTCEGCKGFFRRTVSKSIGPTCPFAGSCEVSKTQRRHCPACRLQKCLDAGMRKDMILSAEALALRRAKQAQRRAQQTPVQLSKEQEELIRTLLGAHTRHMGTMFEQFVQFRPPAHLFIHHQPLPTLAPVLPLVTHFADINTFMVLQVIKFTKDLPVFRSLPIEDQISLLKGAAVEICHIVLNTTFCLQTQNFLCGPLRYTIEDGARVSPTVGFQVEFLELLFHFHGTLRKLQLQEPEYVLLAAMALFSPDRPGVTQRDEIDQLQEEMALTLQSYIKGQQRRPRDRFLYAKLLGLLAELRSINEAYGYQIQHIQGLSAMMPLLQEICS
Chain of UniProt P11509 (whole entry, looked up): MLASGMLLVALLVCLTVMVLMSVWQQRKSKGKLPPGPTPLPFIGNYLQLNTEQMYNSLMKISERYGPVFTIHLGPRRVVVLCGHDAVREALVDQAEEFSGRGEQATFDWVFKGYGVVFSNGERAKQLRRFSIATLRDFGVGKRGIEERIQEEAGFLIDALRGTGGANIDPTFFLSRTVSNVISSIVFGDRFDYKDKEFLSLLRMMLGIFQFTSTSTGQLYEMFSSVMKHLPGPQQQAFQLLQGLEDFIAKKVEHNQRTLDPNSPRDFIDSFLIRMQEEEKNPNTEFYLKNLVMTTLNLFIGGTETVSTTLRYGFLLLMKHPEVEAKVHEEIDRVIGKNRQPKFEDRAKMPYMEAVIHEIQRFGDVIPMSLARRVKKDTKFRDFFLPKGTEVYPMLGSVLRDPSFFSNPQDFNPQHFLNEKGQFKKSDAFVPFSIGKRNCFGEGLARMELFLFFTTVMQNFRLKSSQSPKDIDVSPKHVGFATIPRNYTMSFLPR
Chain of UniProt O43704 (whole entry, looked up): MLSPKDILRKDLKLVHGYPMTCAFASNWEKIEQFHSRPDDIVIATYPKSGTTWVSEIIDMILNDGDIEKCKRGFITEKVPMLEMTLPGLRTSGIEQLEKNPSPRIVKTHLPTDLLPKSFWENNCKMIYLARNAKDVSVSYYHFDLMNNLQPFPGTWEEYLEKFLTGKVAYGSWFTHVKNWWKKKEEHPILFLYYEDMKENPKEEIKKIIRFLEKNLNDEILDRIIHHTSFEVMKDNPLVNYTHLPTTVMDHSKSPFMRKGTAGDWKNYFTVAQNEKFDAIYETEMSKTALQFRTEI
Chain of UniProt P10635 (whole entry, looked up): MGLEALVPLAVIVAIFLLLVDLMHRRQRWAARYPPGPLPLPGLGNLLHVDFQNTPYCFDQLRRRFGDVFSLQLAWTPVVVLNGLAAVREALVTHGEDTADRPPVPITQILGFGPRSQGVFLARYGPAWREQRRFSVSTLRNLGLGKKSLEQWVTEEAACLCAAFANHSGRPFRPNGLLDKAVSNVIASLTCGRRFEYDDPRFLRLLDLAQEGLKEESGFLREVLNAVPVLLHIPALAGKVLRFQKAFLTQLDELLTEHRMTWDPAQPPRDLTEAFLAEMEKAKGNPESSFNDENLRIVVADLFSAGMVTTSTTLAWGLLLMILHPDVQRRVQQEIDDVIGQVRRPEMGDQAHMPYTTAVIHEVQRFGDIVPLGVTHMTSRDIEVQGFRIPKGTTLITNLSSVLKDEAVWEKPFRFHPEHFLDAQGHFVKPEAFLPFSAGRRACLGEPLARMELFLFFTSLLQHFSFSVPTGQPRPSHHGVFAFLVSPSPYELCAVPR
Chain of UniProt Q86VL8 (whole entry, looked up): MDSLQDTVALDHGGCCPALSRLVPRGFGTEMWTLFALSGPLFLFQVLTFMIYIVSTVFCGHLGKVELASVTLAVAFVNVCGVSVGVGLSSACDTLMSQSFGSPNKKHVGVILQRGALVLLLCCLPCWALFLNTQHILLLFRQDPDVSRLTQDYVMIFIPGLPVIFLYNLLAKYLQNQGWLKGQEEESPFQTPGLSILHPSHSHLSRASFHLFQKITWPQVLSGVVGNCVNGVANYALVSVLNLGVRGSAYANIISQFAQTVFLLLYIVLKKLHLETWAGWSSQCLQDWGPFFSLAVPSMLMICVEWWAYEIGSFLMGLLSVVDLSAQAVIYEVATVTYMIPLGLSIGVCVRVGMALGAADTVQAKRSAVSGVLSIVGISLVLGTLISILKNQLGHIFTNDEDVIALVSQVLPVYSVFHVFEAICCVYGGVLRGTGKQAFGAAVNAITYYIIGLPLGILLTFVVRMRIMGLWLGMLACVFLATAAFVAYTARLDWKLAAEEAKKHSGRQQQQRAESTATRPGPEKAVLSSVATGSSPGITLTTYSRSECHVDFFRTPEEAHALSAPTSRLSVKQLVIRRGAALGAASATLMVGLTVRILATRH

Substance	target or system	assay	test system	setting	scale	endpoint	value
CN(C)c1ccc(-c2cc3ccccc3[nH]2)cc1	HEK293	cell growth or viability	–	50 µM	–	viability	74.6%
CC(C)[C@H](NC(=O)[C@@H]1CCCN1C(=O)[C@H](CCCNC(=N)N)NC(=O)[C@H](CS)NC(=O)[C@H](Cc1c[nH]c2ccccc12)NC(=O)[C@H](CCCNC(=N)N)NC(=O)[C@@H](Cc1ccccc1)NC(=O)[C@H](Cc1c[nH]cn1)NC(=O)[C@H](CCC(=O)O)NC(=O)[C@H](CS)NC(=O)[C@H](CS)NC(=O)[C@H](CCCCN)NC(=O)[C@@H]1CC(=O)N[C@@H](CCCNC(=N)N)C(=O)N[C@@H](C)C(=O)N[C@@H](CC(=O)O)C(=O)N[C@H](Cc2ccc(O)cc2)C(=O)N1)C(N)=O [technetium-99m labelled]	–	–	C57 mice, kidneys	intravenous, 0.037 MBq, 0.5 h	–	tissue uptake	127 ± 17.3 %ID/g
Cc1ccc(Nc2nccc(N(C)c3ccc4c(C)n(C)nc4c3)n2)cc1S(N)(=O)=O	ABCB1	bidirectional transport	MDCK-MDR1	5 µM, 240 min, together with: erlotinib 5 µM	–	Papp B-A	3.91 ± 0.12 ×10⁻⁶ cm/s
O=C(c1ccoc1)N1CCN(c2cc(-c3cccnc3)nc3cc(-c4cccc(Cl)c4)nn23)CC1	ABCB1	JC-1 efflux, inhibitor	Jurkat-DNR	–	–	IC50	0.77 ± 0.28 µM
liraglutide	ALB	equilibrium dialysis	Krebs-Henseleit buffer	10 nM, pH 7.4, together with: HSA 50 mg/mL	–	bound fraction	99%
CC[C@H](C)[C@H](NC(=O)[C@H](CCC(=O)O)NC(=O)[C@H](CO)NC(=O)[C@@H](NC(=O)[C@@H](N)CO)C(C)C)C(=O)N[C@@H](CCC(N)=O)C(=O)N[C@@H](CC(C)C)C(=O)N[C@@H](CCSC)C(=O)N[C@@H](Cc1cnc[nH]1)C(=O)N[C@@H](CC(N)=O)C(=O)N[C@@H](CC(C)C)C(=O)NCC(=O)N[C@@H](CCCCN)C(=O)N[C@@H](Cc1cnc[nH]1)C(=O)N[C@@H](CC(C)C)C(=O)N[C@@H](CC(N)=O)C(=O)N[C@@H](CO)C(=O)N[C@@H](CCSC)C(=O)N[C@@H](CCC(=O)O)C(=O)N[C@@H](CCCN=C(N)N)C(=O)N[C@H](C(=O)N[C@@H](CCC(=O)O)C(=O)N[C@@H](Cc1c[nH]c2ccccc12)C(=O)N[C@@H](CC(C)C)C(=O)N[C@@H](CCCN=C(N)N)C(=O)N[C@@H](CCCCN)C(=O)N[C@@H](CCCCN)C(=O)N[C@@H](CC(C)C)C(=O)N[C@@H](CCC(N)=O)C(=O)N[C@@H](CC(=O)O)C(=O)N[C@H](C(=O)N[C@@H](Cc1cnc[nH]1)C(=O)N[C@@H](CC(N)=O)C(=O)N[C@@H](Cc1ccccc1)C(=O)O)C(C)C)C(C)C	chymotrypsin (bovine)	–	–	30 min, pH 6.5, 37 °C, together with: soybean trypsin inhibitor 25.1 mg	–	remaining intact compound	39%
Clc1ccc(CCNCc2c(-c3ccc4ccccc4c3)nc3sccn23)cc1Cl	Nuclear receptor subfamily 1 group I member 3	reporter gene, agonist	HepG2-CYP2B6 cells	unit not given	reference: CITCO	Emax	3.6
CCOC(=O)c1csc([C@@H](NC(=O)c2csc([C@@H](N)C(C)C)n2)C(C)C)n1	ABCB1	calcein-AM efflux, flow cytometry	HeLa transduced with BacMam ABCB1	20 µM, 10 min, 5% FBS, together with: calcein-AM 0.5 µM	reference: 1 µM tariquidar	inhibition	55%
c1ccc2c(c1)CC(NCc1c(-c3ccc4ccccc4c3)nc3occn13)C2	Nuclear receptor subfamily 1 group I member 3	reporter gene, agonist	HepG2-CYP2B6 cells	unit not given	reference: CITCO	Emax	4.9
COc1cccc(-c2cc(N3CCN(C(=O)c4ccoc4)CC3)n3nc(-c4cccc(Cl)c4)cc3n2)c1	ABCB1	JC-1 efflux, inhibitor	Jurkat-DNR	–	–	IC50	2.17 ± 1.02 µM
CC(C)(C(=O)NCC(F)(F)C(F)(F)F)C(=O)N[C@@H]1C(=O)Nc2ccccc2-c2ccccc21	ALB	equilibrium dialysis	human serum albumin 5 mg/mL in PBS	500 ng/mL, 24 h, pH 7.4, mean	–	unbound fraction	0.333
CC1=N[C@]2(C(=O)CO)[C@@H](C[C@H]3[C@@H]4C[C@@H](O)C5=CC(=O)C=C[C@]5(C)[C@H]4[C@@H](O)C[C@@]32C)O1	Cytochrome P450 2D6 (CYP2D6, Homo sapiens, UniProt P10635)	–	pooled human liver microsomes	30 min preincubation, together with: dextromethorphan probe and NADPH	–	IC50	> 50 µM
COc1cccc(-c2cc3nc(-c4ccco4)cc(N4CCN(C(=O)c5ccoc5)CC4)n3n2)c1	ABCB1	JC-1 efflux, inhibitor	Jurkat-DNR	–	–	IC50	7.4 µM
CCOC(=O)c1csc([C@@H](NC(=O)c2csc([C@@H](NC(=O)c3csc([C@@H](N)C(C)C)n3)C(C)C)n2)C(C)C)n1	ABCB1	Bodipy-FL-prazosin efflux, flow cytometry	HeLa transduced with BacMam ABCB1	10 µM, 45 min, 5% FBS	reference: 1 µM tariquidar	inhibition	67%
CC(=O)N1CCN(c2cc(-c3ccco3)nc3cc(-c4ccccc4)nn23)CC1	ABCB1	JC-1 efflux, inhibitor	Jurkat-DNR	–	–	IC50	3.64 µM
O=C1C[C@@H](c2ccc(O)cc2)Oc2cc(O)cc(O)c21	Sulfotransferase 1B1 (SULT1B1, Homo sapiens, UniProt O43704)	substrate	–	10 µM	–	specific activity	0.56 ± 0.03 nmol/min/mg
COc1ccc2[nH]c([S+]([O-])Cc3ncc(C)c(OC)c3C)nc2c1 (stereo not drawn)	mitochondrial cytochrome P450 rat	inhibitor	–	100 µM, 60 min, pH 7.4	–	inhibition	68%
COc1ccc([C@@H](C)NC(=O)c2csc([C@@H](NC(=O)c3csc([C@@H](NC(=O)OC(C)(C)C)C(C)C)n3)C(C)C)n2)cc1	ABCB1	efflux transport, inhibitor, flow cytometry	HeLa, BacMam P-gp transduced	10 µM, 45 min, together with: Bodipy-FL-prazosin	reference: 1 µM tariquidar	inhibition	88%
Cc1coc2c1CC[C@@H](C)C2	Cytochrome P450 2A6 (CYP2A6, Homo sapiens, UniProt P11509)	coumarin 7-hydroxylation, inactivator	–	20 µM, 10 min, pH 7.4, 30 °C, before spin column, together with: NADPH 1 mM	reference: no NADPH control	remaining activity	8 ± 5%
CCN(CC)C(=S)S	mitochondrial cytochrome P450 rat	inhibitor	–	50 µM, 60 min, pH 7.4	–	inhibition	73%
Clc1ccc2[nH]c(-c3ccccc3)cc2c1	HEK293 NF-κB luciferase reporter	reporter gene, item: NF-κB	–	50 µM, 6 h, together with: TNFα	–	inhibition	2.3 ± 0.9%
C=CC(=O)N1C[C@H](Nc2ncnc3[nH]ccc23)CC[C@@H]1C	CYP3A	–	human, plasma	oral, 30 mg, 5 days, together with: itraconazole 200 mg once daily	reference: with over without itraconazole	AUC(0-inf) ratio	115%
O=C(c1ccoc1)N1CCN(c2cc(-c3ccccc3F)nc3cc(-c4cccc(Cl)c4)nn23)CC1	ABCB1	JC-1 efflux, inhibitor	Jurkat-DNR	–	–	IC50	4.69 ± 1.5 µM
CC[C@H](C)[C@H](NC(=O)[C@H](Cc1ccc(O)cc1)NC(=O)[C@@H](NC(=O)[C@@H](N)CCCN=C(N)N)C(C)C)C(=O)N[C@@H](Cc1c[nH]cn1)C(=O)N1CCC[C@H]1C(=O)N[C@@H](Cc1ccccc1)C(=O)O	trypsin	substrate, LC-MS	–	20 µM, 12 h, pH 7.4, together with: Aβ1-28 10 µM, MINP(A) and MINP(β15-28)	–	peptide hydrolysed	8.8 ± 2.1%
O=S(=O)(c1ccccc1)N1CCN(c2cc(-c3ccccc3)nc3cc(-c4cccc(Cl)c4)nn23)CC1	ABCB1	JC-1 efflux, inhibitor	Jurkat-DNR	–	–	IC50	> 50 µM
CCCN(CCC)S(=O)(=O)c1ccc(C(=O)O)cc1	Multidrug and toxin extrusion protein 2 (SLC47A2, Homo sapiens, UniProt Q86VL8)	transport, inhibitor	HEK cells transfected with SLC47A2	0.5 min, together with: baricitinib 0.25 µM	–	IC50	> 200 µM
O=C(NCCCN1CCOCC1)c1cnn2c(-c3ccccc3)cc(-c3ccccc3)nc12	ABCB1	JC-1 efflux, inhibitor	Jurkat-DNR	–	–	IC50	4.41 µM
CC[C@H](C)[C@H](NC(=O)[C@H](Cc1ccccc1)NC(=O)[C@H](CCC(=O)O)NC(=O)[C@H](CCCCNC(=O)COCCOCCNC(=O)COCCOCCNC(=O)CC[C@H](NC(=O)CCCCCCCCCCCCCCCCC(=O)O)C(=O)O)NC(=O)[C@H](C)NC(=O)[C@H](C)NC(=O)[C@H](CCC(N)=O)NC(=O)CNC(=O)[C@H](CCC(=O)O)NC(=O)[C@H](CC(C)C)NC(=O)[C@H](Cc1ccc(O)cc1)NC(=O)[C@H](CO)NC(=O)[C@H](CO)NC(=O)[C@@H](NC(=O)[C@H](CC(=O)O)NC(=O)[C@H](CO)NC(=O)[C@@H](NC(=O)[C@H](Cc1ccccc1)NC(=O)[C@@H](NC(=O)CNC(=O)[C@H](CCC(=O)O)NC(=O)C(C)(C)NC(=O)[C@@H](N)Cc1cnc[nH]1)[C@@H](C)O)[C@@H](C)O)C(C)C)C(=O)N[C@@H](C)C(=O)N[C@@H](Cc1c[nH]c2ccccc12)C(=O)N[C@@H](CC(C)C)C(=O)N[C@H](C(=O)N[C@@H](CCCNC(=N)N)C(=O)NCC(=O)N[C@@H](CCCNC(=N)N)C(=O)NCC(=O)O)C(C)C	ALB	binding	–	14.8 µM, 2 h, together with: 147 µM insulin icodec	–	unbound fraction	78%
CCOC(=O)c1csc([C@@H](N)C(C)C)n1	ABCB1	calcein-AM efflux, flow cytometry	HeLa transduced with BacMam ABCB1	20 µM, 10 min, 5% FBS, together with: calcein-AM 0.5 µM	reference: 1 µM tariquidar	inhibition	< 5%
O=C(C1CCCCC1)N1CCN(c2cc(-c3ccccc3)nc3cc(-c4cccc(Cl)c4)nn23)CC1	ABCB1	JC-1 efflux, inhibitor	Jurkat-DNR	–	–	IC50	3.31 ± 1.86 µM

A few entries again:
Substance	target or system	assay	test system	setting	scale	endpoint	value
liraglutide	ALB	equilibrium dialysis	Krebs-Henseleit buffer	10 nM, pH 7.4, together with: HSA 50 mg/mL	–	bound fraction	99%
CC[C@H](C)[C@H](NC(=O)[C@H](CCC(=O)O)NC(=O)[C@H](CO)NC(=O)[C@@H](NC(=O)[C@@H](N)CO)C(C)C)C(=O)N[C@@H](CCC(N)=O)C(=O)N[C@@H](CC(C)C)C(=O)N[C@@H](CCSC)C(=O)N[C@@H](Cc1cnc[nH]1)C(=O)N[C@@H](CC(N)=O)C(=O)N[C@@H](CC(C)C)C(=O)NCC(=O)N[C@@H](CCCCN)C(=O)N[C@@H](Cc1cnc[nH]1)C(=O)N[C@@H](CC(C)C)C(=O)N[C@@H](CC(N)=O)C(=O)N[C@@H](CO)C(=O)N[C@@H](CCSC)C(=O)N[C@@H](CCC(=O)O)C(=O)N[C@@H](CCCN=C(N)N)C(=O)N[C@H](C(=O)N[C@@H](CCC(=O)O)C(=O)N[C@@H](Cc1c[nH]c2ccccc12)C(=O)N[C@@H](CC(C)C)C(=O)N[C@@H](CCCN=C(N)N)C(=O)N[C@@H](CCCCN)C(=O)N[C@@H](CCCCN)C(=O)N[C@@H](CC(C)C)C(=O)N[C@@H](CCC(N)=O)C(=O)N[C@@H](CC(=O)O)C(=O)N[C@H](C(=O)N[C@@H](Cc1cnc[nH]1)C(=O)N[C@@H](CC(N)=O)C(=O)N[C@@H](Cc1ccccc1)C(=O)O)C(C)C)C(C)C	chymotrypsin (bovine)	–	–	30 min, pH 6.5, 37 °C, together with: soybean trypsin inhibitor 25.1 mg	–	remaining intact compound	39%
Clc1ccc(CCNCc2c(-c3ccc4ccccc4c3)nc3sccn23)cc1Cl	Nuclear receptor subfamily 1 group I member 3	reporter gene, agonist	HepG2-CYP2B6 cells	unit not given	reference: CITCO	Emax	3.6
